Results of several laboratories.
Each line is one published result; not all experiments were run side by side. ± marks the error that the study gave.

Structure (SMILES) = CCCC[C@H](NC(=O)CNC(=O)CNC(=O)CN1CCN(CC(=O)O)CCN(CC(=O)O)CCN(CC(=O)O)CC1)C(=O)N[C@H]1CC(=O)NCCCC[C@@H](C(N)=O)NC(=O)[C@H](Cc2c[nH]c3ccccc23)NC(=O)[C@H](CCCNC(=N)N)NC(=O)[C@@H](Cc2ccccc2)NC(=O)[C@H](Cc2c[nH]cn2)NC1=O [copper-64 labelled]; test system = female C57 mouse, B16/F1 melanoma, lung; conditions = intravenous, 0.037 MBq, 4 h; tissue uptake = 4.39 ± 0.36 %ID/g
Structure (SMILES) = CN(C)c1ccc(-c2nc3ccc(OCCCCCN4CCN5CCN(CC4)CC(=O)[O][Al]([18F])[O]C(=O)C5)cc3s2)cc1; test system = ICR mouse, spleen; conditions = intravenous, 60 min; tissue uptake = 1.01 ± 0.4 %ID/g
Structure (SMILES) = O=C(O)CCC(NP(=O)(O)OCCC[C@@H](NC(=O)CC[C@H](NC(=O)CCCCCNC(=O)c1ccc([18F])cc1)C(=O)O)C(=O)O)C(=O)O (some centres unmarked); test system = mouse, CWR22Rv1 xenograft, kidney; conditions = dose not given, 4 h, blocking agent pre-dosed; tissue uptake = 1.49 ± 0.268 %ID/g
Structure (SMILES) = COC(=O)c1ccc(-c2cn(Cc3cc(Cl)ccc3O[11CH3])nn2)cc1; test = PET/CT; test system = C57BL/6 mouse, kidney; conditions = 2 min; tissue uptake = 3.56 %ID/cc
Structure (SMILES) = CC(C)[C@H](NC(=O)[C@@H]1CCCN1C(=O)[C@H](CCCNC(=N)N)NC(=O)[C@H](CS)NC(=O)[C@H](Cc1c[nH]c2ccccc12)NC(=O)[C@H](CCCNC(=N)N)NC(=O)[C@@H](Cc1ccccc1)NC(=O)[C@H](Cc1c[nH]cn1)NC(=O)[C@H](CCC(=O)O)NC(=O)[C@H](CS)NC(=O)[C@H](CS)NC(=O)[C@@H]1CC(=O)N[C@@H](CCCNC(=N)N)C(=O)NCC(=O)N[C@@H](CC(=O)O)C(=O)N[C@H](Cc2ccc(O)cc2)C(=O)N1)C(N)=O [technetium-99m labelled]; test system = C57 mouse, female, B16/F1 melanoma, muscle; conditions = intravenous, 0.037 MBq, 4 h; tissue uptake = 0.2 ± 0.02 %ID/g
Structure (SMILES) = CCCC[C@H](NC(=O)CN1CCC(NC(=O)CN2CCN(CC(=O)O)CCN(CC(=O)O)CCN(CC(=O)O)CC2)CC1)C(=O)N[C@H]1CC(=O)NCCCC[C@@H](C(N)=O)NC(=O)[C@H](Cc2c[nH]c3ccccc23)NC(=O)[C@H](CCCNC(=N)N)NC(=O)[C@@H](Cc2ccccc2)NC(=O)[C@H](Cc2c[nH]cn2)NC1=O [gallium-68 labelled]; test = biodistribution; test system = C57BL/6J mouse male tumour-bearing, seminal vesicle; conditions = 1 h post injection, unblocked; tissue uptake = 0.3 ± 0.1 %ID/g
Structure (SMILES) = CC(C)[C@H](NC(=O)[C@@H]1CCCN1C(=O)[C@H](CCCNC(=N)N)NC(=O)[C@H](CS)NC(=O)[C@H](Cc1c[nH]c2ccccc12)NC(=O)[C@H](CCCNC(=N)N)NC(=O)[C@@H](Cc1ccccc1)NC(=O)[C@H](Cc1c[nH]cn1)NC(=O)[C@H](CCC(=O)O)NC(=O)[C@H](CS)NC(=O)[C@H](CS)NC(=O)COCCOCCNC(=O)[C@@H]1CC(=O)N[C@@H](CCCNC(=N)N)C(=O)NCC(=O)N[C@@H](CC(=O)O)C(=O)N[C@H](Cc2ccc(O)cc2)C(=O)N1)C(N)=O [technetium-99m labelled]; test system = nude mouse, M21 melanoma xenograft, liver; conditions = intravenous, 2 h; tissue uptake = 1.12 ± 0.05 %ID/g
Structure (SMILES) = CC(C)C[C@H](NC(=O)C[C@H](O)[C@H](CC(C)C)NC(=O)[C@H](Cc1c[nH]cn1)NC(=O)CNC(=O)[C@@H](NC(=O)[C@H](C)NC(=O)[C@H](Cc1c[nH]c2ccccc12)NC(=O)[C@H](CCC(N)=O)NC(=O)[C@@H](Cc1ccccc1)NC(=O)CCNC(=O)CCNC(=O)CN1CCN(CC(=O)O)CCN(CC(=O)O)CCN(CC(=O)O)CC1)C(C)C)C(N)=O [lutetium-177 labelled]; test system = mouse PC-3 xenograft, tumour; conditions = intraperitoneal, 200 pmol, 4 h, without PA; tissue uptake = 7.2 ± 2.1 %ID/g

Repeated from above:
Structure (SMILES) = COC(=O)c1ccc(-c2cn(Cc3cc(Cl)ccc3O[11CH3])nn2)cc1; test = PET/CT; test system = C57BL/6 mouse, kidney; conditions = 2 min; tissue uptake = 3.56 %ID/cc
